# Measured values from different studies.
# Parts stem from different laboratories: compare values within a part only. Changes are numbered by the printed parent chain.

# Set 1 — method: universal PBM; molecule type: double-stranded DNA, one strand shown; medium: in vitro; concentration: 600 nM; direction: higher = stronger binding
# Target: Sal-like protein 4, full length isoform A (SALL4, Homo sapiens, UniProt Q9UJQ4, residues 1-1053)
# Sequence of UniProt Q9UJQ4 (whole entry, looked up): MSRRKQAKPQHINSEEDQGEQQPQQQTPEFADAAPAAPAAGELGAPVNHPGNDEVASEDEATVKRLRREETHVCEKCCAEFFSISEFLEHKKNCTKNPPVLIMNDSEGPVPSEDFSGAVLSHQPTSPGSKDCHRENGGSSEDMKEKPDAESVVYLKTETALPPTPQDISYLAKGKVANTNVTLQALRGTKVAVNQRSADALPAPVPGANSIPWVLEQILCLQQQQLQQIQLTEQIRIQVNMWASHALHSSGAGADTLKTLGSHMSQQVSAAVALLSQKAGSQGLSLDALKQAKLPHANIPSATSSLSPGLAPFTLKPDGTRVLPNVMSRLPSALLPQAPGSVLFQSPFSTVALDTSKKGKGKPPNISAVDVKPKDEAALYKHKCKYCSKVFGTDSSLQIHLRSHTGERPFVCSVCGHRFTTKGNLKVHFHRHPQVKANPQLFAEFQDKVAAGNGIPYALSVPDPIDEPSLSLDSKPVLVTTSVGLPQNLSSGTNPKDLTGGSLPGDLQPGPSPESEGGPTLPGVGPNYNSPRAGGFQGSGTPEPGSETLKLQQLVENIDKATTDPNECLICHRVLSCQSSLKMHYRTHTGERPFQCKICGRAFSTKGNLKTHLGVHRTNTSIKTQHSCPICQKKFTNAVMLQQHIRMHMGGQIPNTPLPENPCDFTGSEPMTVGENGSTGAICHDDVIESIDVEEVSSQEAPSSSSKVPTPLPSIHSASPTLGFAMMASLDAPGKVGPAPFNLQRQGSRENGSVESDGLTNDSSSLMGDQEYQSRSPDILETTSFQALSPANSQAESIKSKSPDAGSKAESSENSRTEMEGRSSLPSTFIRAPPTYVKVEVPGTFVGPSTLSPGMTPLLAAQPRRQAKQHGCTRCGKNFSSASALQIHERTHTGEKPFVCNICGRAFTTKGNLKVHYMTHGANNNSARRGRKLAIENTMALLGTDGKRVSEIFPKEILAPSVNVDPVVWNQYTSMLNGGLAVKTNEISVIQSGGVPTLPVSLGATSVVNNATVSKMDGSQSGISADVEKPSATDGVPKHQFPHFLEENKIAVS
# Notes: 8-mer, flanks averaged, mean of replicates
Sequence,E-score
ACCTGCCT,-0.186
GCCACGGC,-0.32
AGTCGTCG,-0.208
TGAAGCCA,0.077
CAATCAAC,0.00283
AAAACAAT,0.29
ACGATTGC,0.0567
ACAGTACG,0.0274
CGCCCCCG,-0.381
CAATGTCG,-0.0131
TGCGCCCA,-0.204
GTCCGGAA,-0.19
CACTCCCA,-0.000695
AGACGGCC,-0.367
AAGCCAGA,-0.0828
CGGCAAGC,-0.261
AAGCATTC,0.115
TAGCGACA,0.0983
CCTGATTA,0.122
CGTTATTC,0.0839
TACCACGA,0.0388
GCCGGAAA,-0.061

# Set 2 — method: RNA Bind-n-Seq; molecule type: RNA; medium: in vitro; concentration: 365 nM; relative to: no-protein control; direction: higher = stronger binding
# Target: RNA binding protein fox-1 homolog 2, RRM domain, GST-SBP tag (RBFOX2, Homo sapiens, UniProt O43251-10, residues 100-194)
# Notes: natural RNA segment, single round, ends assumed
# All sequences stand within: GGGAGUUCUACAGUCCGACGAUC … UGGAAUUCUCGGGUGCCAA
Sequence,RBNS enrichment (R)
CCCUAAUCCCUCCCCAGCGGCAAGCCCCUCUUUUCAGAGUGGGCAGAGGGUUGCCUAUGGUGGGCACUAGGAAUGAGGUCCCCUGCCUCGAUGCGGGUCCUAGGAGAAAA,0.382
UGGGACCGACUUUGUUUCUUUGUUAUUUAUGAUCUUGUUUAAAGAAAAUAAAUAUCUCCCAACCUUUUUUGUCUGAGGAGCUGUCCUUACUUUGCUGAUCUGGCUAGGAA,0.564
CUUAACUCCUGGUGGAAGAGGGGCAGGCACGUUCGAAGCUUCUGGAUUCAUUUUUCCUCCACUUUCCUGAGAGACCAAAAGUGUUCCUUGAGAUGUCACCAUUUGUCUUU,1.58
AAGCUGUGUCGUGUUCCCUGUGGAAAUGAGUUGAUGUGUGCCAGUGCUGAGCACCUGGUAUUGAGGUACAGAGGAGGGCUCCGCCUGCAGGCACUGUGGCCGCUGAGCUG,1.65
CUUGGCACAUGAAUGACAUUACACACUGAUGCCUGCCAACACACGCAUGGGGUAAGGGCUUUCAUCUCAGUAAUUCUCUUGUUCUAAGGAGAUCAGCUCCAACUAUGGUG,5.01
CACAAGACCACACACACAGCCCUUACCCUCCUCAGGACUACCGAACCUUCUGGCACACCUUGUACAGAGUUUUGGGGUUCACACCCCAAAAUGACCCAACGAUGUCCACA,0.361
UGGCCAACAUAAUGUUUUCACAGUUCCUCUUUGUUGGAAGAAGUGUGUGACCUACAAGAUUCCUGGUUGAUACAGUUCAGGUGAGAAACUGUUUGAUUAUAGAAAAGACC,0.67
AUGCCAUUUUUAUAUUCCUAAUAAAUGGCAAAGAGACAAGAAUAGGACCUUGGAUGGAAAUUCCCUGGCAGAAAAUGAAACAUGGGAAUAAGAUGCUUGAACAAGUUAGA,1.08
GCCCAUAUCCAAUUCGAAUUUCAGAAAUUUCUCUGUUUGCUUUAAAUAACUCUUUACAAAUAAGGGUCGGGCACGGUGGCUCACGCCUGUAAUCCCAGCUCUUUGGGAGG,0.574
AUUUUGGAUUUGGAACUUGGCUUUGUUUUUCAAUAGUGACAAGAAUGGUUCAGUUCUAGGAAUGUUCUGGAAGAUGCUGUUAAUUUUACUUUAAAAUGAGAAUCUGGUGU,0.637
CUUUAGAGUGCAAGUAUCAUAAUUCCGUAUGAUAGAUGGGGCCUGGACACCCAUCUCAACAGGGUCACUUGGUAAUUAACAAUAGCCAUAUAAAUGCGGAUACAGGUUAC,0.825
ACUGAGGCAAAUGGUACCUCAUUGGGUUGGAGACCCUCACCGGUUACUAUUUAUUUUACCCCACACCCUAAGUUGGCAUACUUAUUCCCAGUCUUACUCCUGAUCUCUUU,0.535

# Set 3 — method: protein binding microarray; molecule type: double-stranded DNA, one strand shown; medium: in vitro; concentration: not given; relative to: not given; direction: higher = stronger binding
# Target: Histone acetyltransferase KAT6A, winged helix 1, GST fusion (KAT6A, Homo sapiens, UniProt Q92794, residues 1-85)
# Notes: 8-mer, flanks averaged, mean of 2 arrays, mostly near background
# Residues (chain): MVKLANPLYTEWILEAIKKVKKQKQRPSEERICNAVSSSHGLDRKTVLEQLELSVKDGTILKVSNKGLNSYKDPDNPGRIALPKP
Sequence,E-score
ATGTCTTC,-0.163
AACTAGCG,0.318
CTCGGTAA,-0.0425
ATGTACCC,0.0719
CCAATTCC,-0.102
AGCCCAAC,-0.187
TGACGCAA,0.0479
GAAGGGTA,-0.00466
ACATGAGA,-0.0753
ATCAAGTA,-0.138
GATTTACA,0.000945
AGCAGTTG,0.00662
CTTCACGA,-0.0883
CGGCCCTC,0.311
GCGCGGAC,0.37
GCTATGTA,-0.0739
CTTAAAGC,-0.178
ACAACCCT,-0.103
AGGCTCTG,-0.186
ACCTACGG,0.253
TATCCGGA,-0.0214
ATTGAATC,-0.0379
AGCATGTG,-0.096
AACGGGGA,0.106

# Set 4 — method: RNA Bind-n-Seq; molecule type: RNA; medium: in vitro; concentration: not given; notes: RNA with constant flanks, ends assumed; relative to: input RNA pool; direction: higher = stronger binding
# Target: RING finger protein unkempt homolog, zinc fingers 1-6, GST-SBP tag (UNK, Homo sapiens, UniProt Q9C0B0, residues 30-357)
# Sequence of UniProt Q9C0B0 (30-357, looked up): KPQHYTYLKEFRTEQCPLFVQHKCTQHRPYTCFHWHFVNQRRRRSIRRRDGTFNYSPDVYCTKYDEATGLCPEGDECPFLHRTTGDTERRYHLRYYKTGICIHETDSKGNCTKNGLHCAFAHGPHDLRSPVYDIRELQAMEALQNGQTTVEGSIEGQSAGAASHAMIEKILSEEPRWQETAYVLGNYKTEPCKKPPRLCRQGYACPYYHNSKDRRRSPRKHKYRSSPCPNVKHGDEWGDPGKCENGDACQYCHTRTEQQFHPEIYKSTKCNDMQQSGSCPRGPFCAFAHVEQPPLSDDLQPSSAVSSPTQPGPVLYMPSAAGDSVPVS
# All sequences stand within: GGGAGUUCUACAGUCCGACGAUC … CAACAGAGGAUUGAGCAUCA
Sequence,bound/input enrichment
CUCCUGUCUCGAUUUACUCGAAAUGAGUUUAAUCUGGAAAGCAAGAGUACCAUUGGAGCCGAGUUUGCAACAAGAAGCAUCCAGGUUGAUGGGAAAACAAUAAAGGCACAGAUAUGGGAC,0.152 ratio
CCGGGACACUGCCUGAUGUUCGAUCACCGGCCACGGUCCUGGCGAGAGCUGCCCCUGCGGCCCGCUGACUUUGGUGUGCUGCAUAGGAAUGAGCUCUCGGGGGCUCUCACCGGGCUCACA,0.123 ratio
GGAUCAGACCUGUGAACUACCCAGAAGAAAUUGUCUGCUGCCCUUUUCCAAUCCAGUGAAUUCCGAUGCCCCUGAAGACAAGGACAGCCCUUUCGGAUGAUCCAGAUUCCAGUACCAGUA,0.105 ratio
GCCACAUUUGCUAUUUCCAUCCUGCAACAGUUGGAGAUUGAGUUCAAGGAGACCCAAGCACCCGUAUUGGCCCCCACCAGAGAACUGGCUCAACAGAUCCAAAAGGUAAUUUUGGCUCUU,0.126 ratio
GAAAACGGACGAUGUAUUACUAAGCUGGAAAACAUGGGGUUUCGAGUGGGACAAGGAUUGACCGAAAGGUUUACAAAAGAUACUGCAAGGUUCAAGGAUGAGUUAGAUAUCAUGAAGUUC,0.523 ratio
CUGCAUUUUGCAUGCAUAGUUUAAGAUUACUGGGUGCAGAGAGGGUUCAUUUCUCAAAAUUCCGUCACUGAUAAAUCAUUGUAACGGAUCAUUAUAAAAAUCAUAAACAUAUUUUGUUUG,0.29 ratio
GAACAUGUCGACAAGCUGAAAAUCCCCCCUGAAGAGAUGAAGGAAAUGGAGCAGAAGUUGAUCCGAGACUUCCAAGAGUACGUGGAGCCAGGAGAAGACUUCCCAGCCUCCCCUCAGCGA,0.086 ratio
UUGUGUAGAGCCCAACACGAACUUCACUUCCAAGCUGCCACCUAUCUCUGCCUUUUGAGCCGCAUCCGGCAACAUGUAGCCCUUCAUCAGGAAUUUCAUGGCAAGGGUGAGCGUUCAGUG,0.188 ratio
AGAUGCAGAGAAAGGGACUCAGAUGAUACUUGUAGGCAGCAUAAUACGUCAAAAAGUCCAUUCCGGGAAAUGGAACCUUUGUUGUCACCACACCAUGAUAAACUCAUGUCUUUGCCAGUU,0.204 ratio
ACACCUAGUGACCGUUCCAGAUACAGGUUAGAUUUGGAAGGAAAUGAGUAUCCUGUUCACCGCACUCCAAAUUGUCACGAUCAUGAACGUAACCAUAAAGUGCCUCCACCUAUUAAACCU,0.223 ratio
GAACCUUGGGUGAUUUGUUCUGUAUCAGAAGACAAUAUCAUGCAAGUGUGGCAAAUGGAGUCCGUCCUUGACCACUAGUUUGAUGCCAUCUCCAUUUUGGGUGACCUGUUUCACCAGCAG,0.455 ratio

# Set 5 — target: CCND2, cyclin fold, Cln2 fusion (human); method: yeast growth competition, sequencing; medium: yeast; notes: weak parent motif; relative to: not given; direction: higher = stronger binding
# Starting sequence: SAMHD1 docking peptide (human); ASKSRVQLFKDDP; partner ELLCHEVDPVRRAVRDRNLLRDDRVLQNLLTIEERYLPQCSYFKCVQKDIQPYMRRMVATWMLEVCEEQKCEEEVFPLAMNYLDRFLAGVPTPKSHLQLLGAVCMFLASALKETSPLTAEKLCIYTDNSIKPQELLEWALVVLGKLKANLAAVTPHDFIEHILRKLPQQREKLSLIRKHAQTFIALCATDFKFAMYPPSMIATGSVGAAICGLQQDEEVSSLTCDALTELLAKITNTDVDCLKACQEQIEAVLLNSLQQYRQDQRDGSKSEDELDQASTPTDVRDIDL
Substitution,normalised enrichment score
ASKSRVQLLKDDP [F9L],0.201
ASKHRVQLFKDDP [S4H],0.359
ASKPRVQLFKDDP [S4P],0.00994
ASKSAVQLFKDDP [R5A],0.415
ASKSYVQLFKDDP [R5Y],-0.0657
ASKSRCQLFKDDP [V6C],-0.204
ASKSRVVLFKDDP [Q7V],0.0594
ASKSRYQLFKDDP [V6Y],0.155
ASKSRVQLQKDDP [F9Q],0.0388
ASKSRVQLFKDSP [D12S],-0.09
ASKSRVQLFKDYP [D12Y],0.554
ASKSRVQLCKDDP [F9C],0.0687
ASKSRVQLFKYDP [D11Y],0.169
ASKSRVQGFKDDP [L8G],0.364
ASDSRVQLFKDDP [K3D],0.262
ASCSRVQLFKDDP [K3C],0.0914
ASKSRVQSFKDDP [L8S],-0.0934
AIKSRVQLFKDDP [S2I],0.511
ASKSRVQLFKDIP [D12I],0.0336
ASKSRLQLFKDDP [V6L],0.116
ASKSRVPLFKDDP [Q7P],0.146
ASKSRVQLTKDDP [F9T],0.303
ASKSRVQLPKDDP [F9P],0.543
ASKMRVQLFKDDP [S4M],0.127
ASKSRVQLFKHDP [D11H],0.000919
